Experimental data gathered from unrelated publications.
Numbered parts are unrelated; each lists some results of a single study.

Study 1 — technique: protein-binding microarray; molecule type: double-stranded DNA, one strand shown; sample: in vitro; concentration: 0.8 µM; setting: whole 60-bp probe, no competitor; reading: higher = stronger binding; shared flanks, not repeated: … GTCTTGATTCGCTTGACGCTGCTG
Target: Centromere-binding protein 1, full length, N-terminal tag (CBF1, Saccharomyces cerevisiae, UniProt P17106, residues 1-351)
Sequence of UniProt P17106 (whole entry, looked up): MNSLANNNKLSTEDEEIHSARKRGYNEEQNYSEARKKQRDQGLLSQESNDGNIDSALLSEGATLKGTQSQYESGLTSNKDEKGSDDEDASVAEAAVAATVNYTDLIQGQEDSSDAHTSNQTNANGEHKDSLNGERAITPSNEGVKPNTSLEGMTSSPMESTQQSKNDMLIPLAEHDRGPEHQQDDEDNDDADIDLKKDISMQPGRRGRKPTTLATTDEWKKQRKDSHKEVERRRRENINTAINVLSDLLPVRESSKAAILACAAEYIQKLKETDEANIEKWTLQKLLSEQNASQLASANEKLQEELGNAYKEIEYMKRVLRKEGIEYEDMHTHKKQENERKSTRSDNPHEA
Sequence	fluorescence intensity
GAACACCATGGATTGCTGATGGTAGCTACAGGTTAG	526 a.u.
CCTAACTACTATATACACGTCAGATAGCTTCGTACA	520 a.u.
GAATTACATATTTATCACGACTGTTTACGTATCTAG	571 a.u.
GAACCATACCATCCTCACGTTAATGAATCATTTTAG	567 a.u.
CTACCAAAAAAAGGTGACGAAAGCTCCAATTTATTC	524 a.u.
CTATTTGCAAAGTCTGTCATCAGGGCTTGATAATTC	570 a.u.
GAACACGCGTCCGAACGCGTGAGCATATATGCATAG	716 a.u.
GAAGAATCACTTTAAAACGTGGCCCCACCCGCTTAG	569 a.u.
GAATGAATCAATAAGAAGGTGATCAGGTAGTTCTAG	507 a.u.
CTAAGCGCTGCGTAAAACATCAGAGACGTATGTTTC	484 a.u.
GAAAACCGCATTGTGACTGCGTACTTTAAACGATAG	547 a.u.
CTAATGTCTGCATACGTGATTACTACATATATATTC	628 a.u.
CCTAACTACTATATTCACGTAAAATAGCTTCGTACA	515 a.u.
GAAGAGATTTGCTAGGTGATGACGACGGTGATGTAG	545 a.u.
CTATTTTGTATGGAAACCGTGATGAGAAATCCGTTC	921 a.u.
GAAAGCCACTCTCGTCACGGCTCCGTTAAAATGTAG	577 a.u.
CTACGATGGTTAGGCTTCGTGGGGTAAAAGTCGTTC	493 a.u.
GAATGTTTATTATACCACGTTAAAAATCATTTCTAG	593 a.u.
GAATGGCAACAGTACATCAGAAGAATATGTCGATAG	565 a.u.

Study 2 — technique: protein binding microarray; molecule type: double-stranded DNA, one strand shown; sample: in vitro; concentration: not given; baseline: not given; reading: higher = stronger binding
Target: Histone acetyltransferase KAT6A, winged helix 2, GST fusion (KAT6A, Homo sapiens, UniProt Q92794, residues 85-181)
Setting: 8-mer, flanks averaged, mean of 2 arrays, mostly near background
Residues (chain): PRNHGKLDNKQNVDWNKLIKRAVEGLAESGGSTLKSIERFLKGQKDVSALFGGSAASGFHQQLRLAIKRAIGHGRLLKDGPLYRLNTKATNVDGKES
Sequence	E-score
TCGGGTCA	0.125
CACGAGAC	0.0842
ATAGGCGG	0.0259
ACCCGAGC	0.222
CGCCTCAC	0.218
GTATGACA	-0.0499
CAGAGATG	-0.00783
GAAAGACC	-0.112
CAGTCGCG	-0.0794
CCCGCCCC	0.31
TGACCGAA	-0.00285
AAAGATTT	0.0859
CGATGATA	0.155
CGTGGAAG	-0.0135
AGTTGTTG	0.0526
GTTACGTA	-0.277
ACGAGCGA	0.0292
AAGAGAAG	0.124
ATCTGGAC	0.018
AGAGGATA	-0.0486
AAACATCC	0.0113
CGCGGCCG	0.222
CCCGGTGC	-0.0108
GTACGTGA	-0.218
CTCGCGAG	0.122

Study 3 — technique: RNA Bind-n-Seq; molecule type: RNA; sample: in vitro; concentration: 365 nM; baseline: no-protein control; reading: higher = stronger binding
Target: RNA binding protein fox-1 homolog 2, RRM domain, GST-SBP tag (RBFOX2, Homo sapiens, UniProt O43251-10, residues 100-194)
Setting: natural RNA segment, single round, ends assumed
Shared flanks, not repeated: GGGAGUUCUACAGUCCGACGAUC … UGGAAUUCUCGGGUGCCAA
Target sequence (chain): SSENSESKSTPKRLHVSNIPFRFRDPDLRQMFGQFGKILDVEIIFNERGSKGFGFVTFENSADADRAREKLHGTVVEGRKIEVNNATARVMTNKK
Sequence	RBNS enrichment (R)
UGCUCAGCAUCUGGAAAUUUGGGUGUGCGAUUUUCCCUGAACACAUUGCAUACCAGUGUAAAAAGACUCUGCCUCCCCCCUUUUUGGCUUUUUUACUGGGCUUGGCUGGC	2.28
UAUUGUCACUCAGCCAACAACUUUUCCACACCUGGGGGUUGGUGGCUGUUCUUACUGUCCAAAUGAAGCUAAAAAGAAAGGCAUCUUUCUUCCCUUUUAAAAUUGUGUAA	0.234
AUUUAGAUGGAAUCUUACCACGACUUGAGGCUAGGACCACCCACUUCCUCUUUCCCAGCCCUAUUUCUGGGAUCCCAGAGGGGCAGGGGUGGUGGAGGCGGUGCCGGGAC	0.202
ACGACCUCAUGUGAGCGCGGGCAGCGGGCAGGGACUGAAGCCUGACCGACCUCCAGCAGCACUCGGACGUCCCCGGACCAGCCCUCAGUCUCGGUCCACGCUGCUUUCUU	0.315
UACCAUACAUUCUUUUGUAGUAAAAUAUAAGUCAGAUUUCAAUCAUCUAUGAUUCAAGACAGUGGGAAUUUUAUCUUCUGUAACAAGUUUCAAUAAAGUUAGACCAGCUU	0.41
UGAUACUGUGUGCGACGUGGAGAGAUUUAAUUAUUUGUAAUAAAGGAUUUGCUAUGGUCUAUUAAUUCCAAGUGGUACGCCUGUAUGUUUUUCCUUAAAAUUGAGUAUUU	1.32
ACAAUUCACUUGAAUUUGACAAACUGAAACAGAUGGGUUUUCUGGGUUCUCUGAUAACCUAUGGGAAUGUUUGGAUGCCAGUUGGGCUAGUGAAUCGCCACUGUACUGUA	0.381
GAGGGUGGGGUACUGGAGUUAGAUCUCUAAGCCCCUCCUGGAACCCUCAUUUUCCCCACUCUCAAUGUCCCAGUGUCCAGCGUGACUAAGGACACGGGCCCCCUUCCGUC	0.627

Study 4 — technique: RNA Bind-n-Seq; molecule type: RNA; sample: in vitro; concentration: not given; baseline: input RNA pool; reading: higher = stronger binding
Target: RING finger protein unkempt homolog, zinc fingers 1-6, GST-SBP tag (UNK, Homo sapiens, UniProt Q9C0B0, residues 30-357)
Setting: RNA with constant flanks, human and mouse sites, ends assumed
Shared flanks, not repeated: GGGAGUUCUACAGUCCGACGAUC … CAACAGAGGAUUGAGCAUCA
Construct (chain): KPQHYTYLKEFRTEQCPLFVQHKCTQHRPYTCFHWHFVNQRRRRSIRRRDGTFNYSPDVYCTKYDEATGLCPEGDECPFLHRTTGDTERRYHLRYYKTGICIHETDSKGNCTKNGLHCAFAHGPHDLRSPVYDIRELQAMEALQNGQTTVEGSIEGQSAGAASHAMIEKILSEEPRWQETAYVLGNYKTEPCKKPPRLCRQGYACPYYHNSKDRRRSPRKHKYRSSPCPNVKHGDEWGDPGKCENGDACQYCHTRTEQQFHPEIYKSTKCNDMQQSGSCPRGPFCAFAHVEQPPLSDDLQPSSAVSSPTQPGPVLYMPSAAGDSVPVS
Sequence	bound/input enrichment [ratio]
ACAGUUAGCAAGCGAAGUGUUAAAUGGAGAAGAUGCUUGUUUUUAUUAAACAUUUGGAGAUUUAGAUAAUUUACAUUUUAACUGAAUGUCUAAAGUGAUUAUCUUCCCCUCCCUCCCCCA	0.613
GGCCUUCGAGGAAGAGGCCCACCUCCUUCAUGGGCCUCUGAGCCUGAACGCCCAUCCAUUCUUAGUGCAUCAGAACUGAAGGAGCUUGAUAAAUUUGAUAACCUAGAUGCUGAAGCUGAU	0.368
AGUAACUAACCACCAAGAACCUCUUCUGUAACCCAGAGUGAGAAAGCUGUAGGCAUAUUCUAGCAGGUAUCAAUGUCUCUGGCAUCCUUUAGAGCCUUACUCUGGUUAACUGACUCUCAG	0.331
UGCUCCUGUUCACAAUCACACUGCUGCUCUAGAUACCUGUGUAUGGGAGCCAUGUCUUUAUUUUUACCUUGCUUACUCUGUUAUCCUCCUGCUAAAGGAUGCCUGAAGCUGUGCAGGAGG	0.449
CGAGAUGCCCGUUCUUACAACCGGUUUCAAAUCGCCACUGUCACCGAAAAAGGUGUUGAAAUAGAGGGACCAUUGUCUACAGAGACCAACUGGGAUAUUGCCCACAUGAUCAGUGGCUUU	0.0994
AGUAAGACCAUGAAUUAUGGCAUUUCUUAAAUGAAGCGUUCAAGAAGUGAGAGAAUGUCAUAGAAAAUAAAUGAUUUUUAAGUUAUGUCUAUUAAUCUGACUGUAGAUAUAUAUAUUUAC	0.703
ACUGUGGCAUAUACUGAAAAGAAAAUGACCAGUGGCAAGAUCAAGAAAUUUAUUCAGGAUAGCAUUUUUGGUCUCUGUCCUCAUAUGACGGAAGAUAAUAAAGAUUUGAUACAAGGCAAG	0.966
UCACUAUUCUAUAUUAAAACUUUGUCAGAAAAUGAUGUGCUAUUCAAGUAAGUUUGUUUUACUUUUUUCUUAAAAGGAUAUUUUAACAUGCCUUAUUUAUUAUUGUUAUCAAAACAAAUA	0.894

Repeated from above (study 2):
Sequence	E-score
CAGAGATG	-0.00783
GAAAGACC	-0.112
CAGTCGCG	-0.0794
CCCGCCCC	0.31
TGACCGAA	-0.00285
AAAGATTT	0.0859
CGATGATA	0.155
CGTGGAAG	-0.0135
